{"data": "Results from different studies", "gpmI": "gpmI (Escherichia coli, UniProt P37689)", "note": "Compare with care: the assays were run in different laboratories. ± marks the error that the study gave.", "UniProt P37689, sequence (whole entry, looked up)": "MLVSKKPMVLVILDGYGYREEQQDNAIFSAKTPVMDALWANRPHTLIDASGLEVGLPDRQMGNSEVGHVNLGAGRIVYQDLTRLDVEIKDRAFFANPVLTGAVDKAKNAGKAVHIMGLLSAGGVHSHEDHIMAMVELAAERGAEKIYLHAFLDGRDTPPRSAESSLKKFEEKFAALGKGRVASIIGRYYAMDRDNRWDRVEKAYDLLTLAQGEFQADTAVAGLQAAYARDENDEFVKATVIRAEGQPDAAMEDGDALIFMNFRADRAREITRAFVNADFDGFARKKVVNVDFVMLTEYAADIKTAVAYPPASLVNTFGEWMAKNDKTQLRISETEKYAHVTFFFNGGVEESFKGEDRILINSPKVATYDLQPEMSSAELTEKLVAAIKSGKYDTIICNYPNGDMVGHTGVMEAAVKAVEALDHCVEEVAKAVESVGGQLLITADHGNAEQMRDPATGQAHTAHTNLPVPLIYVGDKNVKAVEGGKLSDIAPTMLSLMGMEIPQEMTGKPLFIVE", "UniProt P08254, sequence (whole entry, looked up)": "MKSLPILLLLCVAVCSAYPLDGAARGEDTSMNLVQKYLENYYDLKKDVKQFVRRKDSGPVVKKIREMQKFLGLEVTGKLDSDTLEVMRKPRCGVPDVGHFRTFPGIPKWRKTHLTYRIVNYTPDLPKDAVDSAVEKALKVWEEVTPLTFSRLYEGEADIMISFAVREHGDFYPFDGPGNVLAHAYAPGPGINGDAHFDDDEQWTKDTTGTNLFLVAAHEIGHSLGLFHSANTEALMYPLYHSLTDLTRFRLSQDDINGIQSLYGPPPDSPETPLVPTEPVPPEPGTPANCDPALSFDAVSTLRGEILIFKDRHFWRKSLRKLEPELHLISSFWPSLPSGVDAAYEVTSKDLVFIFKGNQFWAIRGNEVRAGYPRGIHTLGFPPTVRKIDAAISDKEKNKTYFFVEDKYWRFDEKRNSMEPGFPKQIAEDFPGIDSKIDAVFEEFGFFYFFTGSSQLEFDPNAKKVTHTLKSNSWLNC", "UniProt P48546, sequence (whole entry, looked up)": "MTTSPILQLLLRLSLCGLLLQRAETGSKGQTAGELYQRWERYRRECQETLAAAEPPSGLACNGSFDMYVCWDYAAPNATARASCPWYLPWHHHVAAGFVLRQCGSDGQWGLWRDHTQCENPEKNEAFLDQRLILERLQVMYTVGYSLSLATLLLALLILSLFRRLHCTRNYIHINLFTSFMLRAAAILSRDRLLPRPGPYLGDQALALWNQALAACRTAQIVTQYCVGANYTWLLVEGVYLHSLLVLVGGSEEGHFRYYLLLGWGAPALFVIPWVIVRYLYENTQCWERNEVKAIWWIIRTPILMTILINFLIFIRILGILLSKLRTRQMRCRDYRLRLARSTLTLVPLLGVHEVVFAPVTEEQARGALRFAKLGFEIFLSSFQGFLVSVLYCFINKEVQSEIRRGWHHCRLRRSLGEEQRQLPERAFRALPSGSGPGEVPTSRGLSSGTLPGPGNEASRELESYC", "UniProt P05177, sequence (whole entry, looked up)": "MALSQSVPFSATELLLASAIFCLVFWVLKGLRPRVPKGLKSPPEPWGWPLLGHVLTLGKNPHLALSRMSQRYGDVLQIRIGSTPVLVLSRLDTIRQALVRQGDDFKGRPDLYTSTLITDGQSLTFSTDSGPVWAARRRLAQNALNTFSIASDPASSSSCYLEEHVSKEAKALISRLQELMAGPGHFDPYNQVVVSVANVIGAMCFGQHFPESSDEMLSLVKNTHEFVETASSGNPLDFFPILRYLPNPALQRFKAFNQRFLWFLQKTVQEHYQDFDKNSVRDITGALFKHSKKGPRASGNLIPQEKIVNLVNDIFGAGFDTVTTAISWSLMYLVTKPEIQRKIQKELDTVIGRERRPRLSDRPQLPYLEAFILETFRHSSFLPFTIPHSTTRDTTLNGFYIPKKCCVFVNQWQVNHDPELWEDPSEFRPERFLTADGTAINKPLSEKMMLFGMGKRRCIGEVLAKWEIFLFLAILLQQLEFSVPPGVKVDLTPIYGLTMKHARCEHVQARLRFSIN", "UniProt P41144, sequence (whole entry, looked up)": "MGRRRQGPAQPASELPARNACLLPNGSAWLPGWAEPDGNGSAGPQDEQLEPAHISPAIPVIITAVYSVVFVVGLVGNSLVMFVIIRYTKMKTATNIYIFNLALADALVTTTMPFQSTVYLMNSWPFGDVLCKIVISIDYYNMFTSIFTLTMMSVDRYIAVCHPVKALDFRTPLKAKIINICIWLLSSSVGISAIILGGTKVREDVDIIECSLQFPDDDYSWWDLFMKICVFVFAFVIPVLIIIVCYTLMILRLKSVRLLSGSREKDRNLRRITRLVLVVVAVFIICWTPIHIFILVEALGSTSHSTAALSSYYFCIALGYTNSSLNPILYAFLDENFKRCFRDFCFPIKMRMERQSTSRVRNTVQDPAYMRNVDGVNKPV", "UniProt Q4VWF8, sequence (whole entry, looked up)": "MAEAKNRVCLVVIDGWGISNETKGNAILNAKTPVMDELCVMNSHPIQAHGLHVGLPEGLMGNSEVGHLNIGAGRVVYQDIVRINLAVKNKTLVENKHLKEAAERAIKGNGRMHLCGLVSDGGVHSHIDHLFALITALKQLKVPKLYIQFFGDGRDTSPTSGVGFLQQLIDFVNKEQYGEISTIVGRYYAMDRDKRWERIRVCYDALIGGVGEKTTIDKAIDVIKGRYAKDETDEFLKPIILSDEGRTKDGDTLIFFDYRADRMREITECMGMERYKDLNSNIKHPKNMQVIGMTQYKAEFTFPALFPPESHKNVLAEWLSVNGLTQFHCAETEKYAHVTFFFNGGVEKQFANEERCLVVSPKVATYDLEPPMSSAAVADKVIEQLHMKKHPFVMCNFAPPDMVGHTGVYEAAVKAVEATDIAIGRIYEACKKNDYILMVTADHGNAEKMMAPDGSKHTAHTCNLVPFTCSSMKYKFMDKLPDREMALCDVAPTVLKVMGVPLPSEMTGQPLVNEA", "UniProt P40337, sequence (whole entry, looked up)": "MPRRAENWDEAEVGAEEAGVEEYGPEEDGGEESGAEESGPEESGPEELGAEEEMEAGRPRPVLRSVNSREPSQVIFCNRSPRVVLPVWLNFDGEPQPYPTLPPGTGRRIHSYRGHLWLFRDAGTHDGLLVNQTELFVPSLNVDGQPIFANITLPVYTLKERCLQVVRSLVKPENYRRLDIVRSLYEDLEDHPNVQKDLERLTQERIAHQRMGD", "UniProt P31645, sequence (whole entry, looked up)": "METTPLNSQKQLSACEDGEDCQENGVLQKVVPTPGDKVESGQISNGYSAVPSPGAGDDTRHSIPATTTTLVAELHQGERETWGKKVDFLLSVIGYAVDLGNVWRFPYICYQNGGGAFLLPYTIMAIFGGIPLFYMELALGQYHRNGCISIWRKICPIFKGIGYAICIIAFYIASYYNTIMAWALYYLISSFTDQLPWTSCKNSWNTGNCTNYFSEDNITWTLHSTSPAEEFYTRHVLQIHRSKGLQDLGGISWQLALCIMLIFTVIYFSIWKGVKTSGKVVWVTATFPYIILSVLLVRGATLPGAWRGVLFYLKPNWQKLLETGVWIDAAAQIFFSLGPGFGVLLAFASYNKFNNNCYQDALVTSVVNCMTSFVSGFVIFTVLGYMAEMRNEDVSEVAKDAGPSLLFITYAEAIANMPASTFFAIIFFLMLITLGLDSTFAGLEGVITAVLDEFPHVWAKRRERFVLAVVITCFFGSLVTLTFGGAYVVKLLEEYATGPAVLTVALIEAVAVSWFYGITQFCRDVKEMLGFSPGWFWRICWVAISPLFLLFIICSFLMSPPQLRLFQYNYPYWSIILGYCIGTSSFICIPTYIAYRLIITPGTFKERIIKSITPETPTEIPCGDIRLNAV", "UniProt P23977, sequence (whole entry, looked up)": "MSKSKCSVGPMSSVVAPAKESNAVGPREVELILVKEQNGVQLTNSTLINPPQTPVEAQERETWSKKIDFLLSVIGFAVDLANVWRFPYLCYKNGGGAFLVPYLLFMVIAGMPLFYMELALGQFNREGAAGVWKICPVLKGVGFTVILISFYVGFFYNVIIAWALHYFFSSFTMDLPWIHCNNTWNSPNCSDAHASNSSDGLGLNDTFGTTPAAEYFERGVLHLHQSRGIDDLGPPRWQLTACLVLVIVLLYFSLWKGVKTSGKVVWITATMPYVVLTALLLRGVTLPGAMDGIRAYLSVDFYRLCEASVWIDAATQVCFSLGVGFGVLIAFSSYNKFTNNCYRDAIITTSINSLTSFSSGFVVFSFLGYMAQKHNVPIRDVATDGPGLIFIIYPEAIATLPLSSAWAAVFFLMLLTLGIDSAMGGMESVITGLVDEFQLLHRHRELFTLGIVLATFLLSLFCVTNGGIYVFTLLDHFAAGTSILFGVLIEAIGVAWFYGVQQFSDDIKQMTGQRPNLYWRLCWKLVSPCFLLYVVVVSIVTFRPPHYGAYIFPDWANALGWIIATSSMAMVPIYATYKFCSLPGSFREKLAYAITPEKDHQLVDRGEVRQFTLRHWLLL"}
{"SMILES": "CC[N+](C)(C)CCc1c[nH]c2cccc(O)c12", "target or system": "Sodium-dependent serotonin transporter (SLC6A4, Homo sapiens, UniProt P31645)", "assay": "ligand displacement, radioligand", "quantity": "Ki", "value": "830 nM"}
{"SMILES": "Cc1cccc(-c2cccc(C)n2)n1.[Cl-].[Cl-].[Ru+2].c1ccc(-c2ccccn2)nc1.c1ccc(-c2ccccn2)nc1", "assay": "DNA binding, agarose gel electrophoresis", "test system": "pUC19 plasmid DNA", "conditions": "photoactivated 40 J/cm^2, λ>400 nm, with: pUC19 40 µg/mL", "quantity": "EC50", "value": "7.8 to 15.6 µM"}
{"SMILES": "CN1C(=O)[C@H](Cc2ccc(O)cc2)NC(=O)CNC(=O)[C@H](Cc2ccc(O)cc2)NC(=O)[C@H](CCC(=O)O)NC(=O)[C@H](Cc2ccc(O)cc2)N(C)C(=O)[C@H](Cc2ccc(O)cc2)N(C)C(=O)[C@H](CCC(N)=O)NC(=O)[C@H](Cc2c[nH]c3ccccc23)NC(=O)[C@H](Cc2ccc(O)cc2)NC(=O)[C@@H](Cc2ccc(O)cc2)NC(=O)CSC[C@@H](C(N)=O)NC(=O)[C@H](CCCCN)NC(=O)[C@@H]1Cc1ccc(O)cc1", "target or system": "gpmI", "assay": "enzyme activity, inhibitor, luminescent coupled-enzyme ATP", "conditions": "15 min, 37 °C", "quantity": "AC50", "value": "6.31 µM"}
{"SMILES": "O=P(O)(O)Oc1ccc(Oc2ccc(S(=O)(=O)CC3CS3)cc2)cc1 (racemic)", "target or system": "Stromelysin-1 (MMP3, Homo sapiens, UniProt P08254)", "assay": "enzyme activity, inhibitor", "quantity": "Ki", "value": "142000 nM"}
{"SMILES": "CC[C@H](C)[C@H](NC(=O)[C@H](CO)NC(=O)[C@H](Cc1ccc(O)cc1)NC(=O)[C@H](CC(=O)O)NC(=O)[C@H](CO)NC(=O)[C@@H](NC(=O)[C@H](Cc1ccccc1)NC(=O)[C@@H](NC(=O)CNC(=O)[C@@H](N)CCC(=O)O)[C@@H](C)O)[C@@H](C)CC)C(=O)N[C@@H](C)C(=O)N[C@@H](CCSC)C(=O)N[C@@H](CC(=O)O)C(=O)N[C@@H](CCCCN)C(=O)N[C@H](C(=O)N[C@@H](Cc1c[nH]cn1)C(=O)N[C@@H](CCC(N)=O)C(=O)N[C@@H](CCC(N)=O)C(=O)N[C@@H](CC(=O)O)C(=O)N[C@@H](Cc1ccccc1)C(=O)N[C@H](C(=O)N[C@@H](CC(N)=O)C(=O)N[C@@H](Cc1c[nH]c2ccccc12)C(=O)N[C@@H](CC(C)C)C(=O)N[C@@H](CC(C)C)C(=O)N[C@@H](C)C(=O)N[C@@H](CCC(N)=O)C(=O)N[C@@H](CCCCN)C(N)=O)C(C)C)[C@@H](C)CC", "target or system": "Gastric inhibitory polypeptide receptor (GIPR, Homo sapiens, UniProt P48546)", "assay": "antagonist, Schild analysis, refers to: cAMP", "test system": "COS-7 transfected", "conditions": "10 min preincubation, with: GIP(1-42)", "quantity": "Ki", "value": "14.9 nM"}
{"SMILES": "CC1=CC(C)=[N+]2C1=Cc1ccc(CCC(=O)NCCOCCOCCOCCOCC(=O)N[C@H](C(=O)N3C[C@H](O)C[C@H]3C(=O)NCc3ccc(-c4scnc4C)cc3)C(C)(C)C)n1[B-]2(F)F", "target or system": "von Hippel-Lindau disease tumor suppressor, with elongin B/C (VHL, Homo sapiens, UniProt P40337)", "assay": "binding, TR-FRET", "conditions": "30 min, total binding", "quantity": "Kd", "value": "3.61 nM"}
{"SMILES": "CCC[C@@H](C(=O)c1ccccc1)N1CCCC1", "target or system": "Sodium-dependent dopamine transporter (Slc6a3, Rattus norvegicus, UniProt P23977)", "assay": "dopamine clearance, inhibitor, fast-scan cyclic voltammetry", "test system": "rat striatal slices", "quantity": "IC50", "value": "0.136 µM"}
{"SMILES": "Cc1cc(O)cc(C)c1C[C@@H]1NC(=O)[C@H](CCCCN)NC(=O)[C@H](Cc2ccccc2)NC(=O)[C@@H](CCCCNC(=N)N)NC1=O", "target or system": "Kappa-type opioid receptor (OPRK1, Cavia porcellus, UniProt P41144)", "assay": "antagonist", "quantity": "Kb", "value": "25.4 ± 5.1 nM"}
{"SMILES": "CCCCCc1cc(O)c2c(c1)OC(C)(C)C1CCC(C)=CC21 (single isomer, unassigned; (-))", "target or system": "Cytochrome P450 1A2 (CYP1A2, Homo sapiens, UniProt P05177)", "assay": "inhibitor", "test system": "HEK cell microsomes", "conditions": "30 min preincubation with NADPH", "quantity": "IC50", "value": "1.8 ± 0.55 µM"}
{"SMILES": "CC(C)[C@@H]1NC(=O)[C@H](CO)N(C)C(=O)[C@H](Cc2c[nH]c3ccccc23)NC(=O)[C@H](CCC(=O)O)NC(=O)[C@H](CC(=O)O)NC(=O)[C@H](Cc2ccc(O)cc2)N(C)C(=O)[C@H](Cc2ccc(O)cc2)NC(=O)[C@H](Cc2c[nH]c3ccccc23)NC(=O)[C@H](Cc2c[nH]c3ccccc23)NC(=O)[C@H](CC(=O)O)NC(=O)CNC(=O)[C@H](CO)NC(=O)[C@@H](Cc2ccc(O)cc2)NC(=O)CSC[C@@H](C(N)=O)NC(=O)CN(C)C(=O)[C@H](Cc2ccccc2)N(C)C(=O)[C@H](C)NC1=O", "target or system": "ipgm-1 (Brugia malayi, UniProt Q4VWF8)", "assay": "enzyme activity, inhibitor, luminescent coupled-enzyme ATP", "quantity": "AC50", "value": "13.2 µM"}
{"SMILES": "CC(=O)N[C@H]1[C@@H](OC[C@H](NC(=O)CNC(=O)[C@@H]2CCCN2C(=O)[C@H](C)NC(=O)[C@@H]2CCCN2C(=O)[C@@H](N)CCCNC(=N)N)C(=O)N[C@H](C(=O)N[C@@H](C)C(=O)N2CCC[C@H]2C(=O)N2CCC[C@H]2C(=O)N[C@@H](C)C(=O)N[C@@H](Cc2c[nH]cn2)C(=O)NCC(=O)O)[C@@H](C)O)O[C@H](CO)[C@H](O)[C@@H]1O", "target or system": "anti-MUC1 Fab 16 A R32G mutant, murine", "assay": "SPR", "how to read": "baseline: peptide KD over Glyco-S KD", "quantity": "KD ratio", "value": "~1.9 fold"}
{"SMILES": "COc1ccc(C[C@H]2C(=O)N(C)[C@@H](Cc3ccc(O)cc3)C(=O)N(C)[C@@H](Cc3ccccc3)C(=O)N[C@@H](CC(N)=O)C(=O)NCC(=O)N(C)[C@@H](Cc3ccc(O)cc3)C(=O)N[C@@H](CC(N)=O)C(=O)N[C@@H](Cc3c[nH]cn3)C(=O)N[C@@H](Cc3ccc(O)cc3)C(=O)N[C@@H](Cc3c[nH]c4ccccc34)C(=O)N[C@H](C(N)=O)CSCC(=O)N[C@H](Cc3ccc(O)cc3)C(=O)N[C@@H](CC(=O)O)C(=O)N[C@@H](CO)C(=O)N[C@@H](Cc3ccc(O)cc3)C(=O)N[C@@H](C)C(=O)N2C)cc1", "target or system": "gpmI", "assay": "enzyme activity, inhibitor, luminescent coupled-enzyme ATP", "conditions": "15 min, 37 °C", "quantity": "AC50", "value": "0.117 µM"}
{"SMILES": "Cc1cc(C)n(C(C(=O)OC(C)C)n2nc(C)cc2C)n1.F[P-](F)(F)(F)(F)F.[Cu+].c1ccc(P(c2ccccc2)c2ccccc2)cc1", "target or system": "LoVo", "assay": "cell growth or viability", "conditions": "3D culture", "quantity": "IC50", "value": "16.6 µM"}
{"SMILES": "COc1ccc(C[C@H]2C(=O)N[C@@H](CC(N)=O)C(=O)N[C@@H](CC(=O)O)C(=O)N[C@@H](CO)C(=O)NCC(=O)N[C@@H](Cc3c[nH]c4ccccc34)C(=O)N(C)[C@@H](Cc3ccc(O)cc3)C(=O)N[C@@H](CC(N)=O)C(=O)N[C@@H]([C@@H](C)O)C(=O)N(C)[C@@H](Cc3ccccc3)C(=O)N[C@H](C(N)=O)CSCC(=O)N[C@@H](Cc3ccc(O)cc3)C(=O)N2C)cc1", "target or system": "gpmI", "assay": "enzyme activity, inhibitor, luminescent coupled-enzyme ATP", "conditions": "15 min, 37 °C", "quantity": "AC50", "value": "6.92 µM"}
{"SMILES": "C1N2CN3CN1CP(C2)C3.CC(C)OC(=O)C(n1cccn1)n1cccn1.F[P-](F)(F)(F)(F)F.[Cu+]", "target or system": "LoVo", "assay": "cell growth or viability", "conditions": "3D culture", "quantity": "IC50", "value": "156 µM"}
